Published values collected from several papers.
Lines come from different studies, so protocols differ.
Method: steady-state kinetics
B1: trypsin (Saccharopolyspora erythraea, UniProt Q54137); chain IVGGEDANVQDHPFTVALVTPDGQQFCGGTLAAPNKVVTAAHCTVGSQPADINVVSGRTVMSSNEGTVSKVTNVWVHPEYQDAAKGFDVSVLTLEAPVKEAPIELAKADDAGYAPDTAATILGWGNTSEGGQQADHLQKATVPVNSDDTCKQAYGEYTPDAMVCAGVPEGGVDTCQGDSGGPMVVNNKLIGVTSWGEGCARPGKPGVYARVGAYYDVLMEQINAGAVSAR
B2: protein (Actinidia deliciosa, UniProt C7SHN9); chain MEPLLFSIQTLVHQVKQEIFSSTFDLYSFVSPSAYDTAWLAMIPHPKQNSCPKFKGCLDWILDNQKEAGYWGECDHDGLPTIDSLPATLACMVALKTWGVSEKHINKGLAFIHANSTTLLKEKYDHLPRWFVIVFPAMVEVAQAAGLKVLFSNGLEEVVLNISLEREKILEREEFVDKYHYPPLASYLEALPPSYTIDRKDITMNLSGDGSCFQSPSATARAFLATGNQKCMAYLESLVQKRPGGVPTMYPMDGELVSLCLVNQIQRLGLAEHFTEEIEENLKLIYENYKNQESREMKDSYLVPTKIYKDSLAFRLLRMHGYNVTPRRFCWFLYQEDIRVHIEKNYECFTSALYNVYRATDLMFSGEYELEEARVFSRKLLEKSMKLKSLNDNLVNFPSFRSVIDHELSVPWIARLEHLDHRMWIEENKVDTLWIGKASFYRLRALNDKLMTLAVESYKFRQSFYRNELEELKRWSKDWGLTDLGFGRKKTTYCYYAIAASSSLPHNSMVRLIVAKSAILVTIADDFFDMEGSLEDLQSLTQAVQRWDGNSLSGHGKIIFCALDNLVSDIAKPHLHLEGSHVAENVKNMWSETIASWLTETTWSHTGYVPSLDEYLQTGKISVASQLMTVPALCFLSPNVHPICKLEANHYQIITKLLMVSTRLLNDTQTYEKELKDGKRNFVILHSKGSPQTGIEKSVAFVKEILDQIEKEFLEHTLMDGHNDLPKPCKHLHLSILRAFHMFYNSGDLFDSDTGLLHDINKAFYVPL
B3: protein (Phaseolus vulgaris, UniProt V7CJ62); chain MSAYKDQDPRLHGIKTKIRVVPNFPKSGIMFQDITTLLLDPKAFKDTIDLFVERYKGKNISVVAGIEARGFIFGPPIALAIGAKFVPLRKPKKLPGKVISQEYILEYGRDCIEMHVGAVEPGERALVVDDLIATGGTLCAAMDLLERVGAEVVECACVIELPELKGRERLNGKPLYVLVEYMEI
B4: enzyme (Chlamydomonas reinhardtii, UniProt A0A2K3D6R4); chain MSETAGKPIECKAAIAWEAKKPLEVRTVTVAPPGPGEVRVQIKATALCQTDAYTLGGLDPEGRFPCILGHEAAGVVESVGEGVTSVKPGDHVIPCYQAYCGECKFCKHPESNLCVSVRAFTGKGVMKSDGKPRFTVDGKPIYHFMGTSTFSEYTVVHEQSVAKIDVNAPLDKVCLLGCGVSTGWGAVFNTAKVTAGSTVAVFGLGAVGLAVIEAAKRAGASRIIAVDIDPTKFPTAKEFGATDCINPKDHEKPIQQVIVEMTEWGCDYTFECIGNTAVMRAALECAHRGWGTSVIVGVAAAGQEISTRPFQLVTGRRWMGTAFGGYKSRVQVPDLVTDYMSGATLLDKYITHNMKFDQINEAFELLHAGECLRCVLTF
Chain of UniProt Q6ZQB6 (whole entry, looked up): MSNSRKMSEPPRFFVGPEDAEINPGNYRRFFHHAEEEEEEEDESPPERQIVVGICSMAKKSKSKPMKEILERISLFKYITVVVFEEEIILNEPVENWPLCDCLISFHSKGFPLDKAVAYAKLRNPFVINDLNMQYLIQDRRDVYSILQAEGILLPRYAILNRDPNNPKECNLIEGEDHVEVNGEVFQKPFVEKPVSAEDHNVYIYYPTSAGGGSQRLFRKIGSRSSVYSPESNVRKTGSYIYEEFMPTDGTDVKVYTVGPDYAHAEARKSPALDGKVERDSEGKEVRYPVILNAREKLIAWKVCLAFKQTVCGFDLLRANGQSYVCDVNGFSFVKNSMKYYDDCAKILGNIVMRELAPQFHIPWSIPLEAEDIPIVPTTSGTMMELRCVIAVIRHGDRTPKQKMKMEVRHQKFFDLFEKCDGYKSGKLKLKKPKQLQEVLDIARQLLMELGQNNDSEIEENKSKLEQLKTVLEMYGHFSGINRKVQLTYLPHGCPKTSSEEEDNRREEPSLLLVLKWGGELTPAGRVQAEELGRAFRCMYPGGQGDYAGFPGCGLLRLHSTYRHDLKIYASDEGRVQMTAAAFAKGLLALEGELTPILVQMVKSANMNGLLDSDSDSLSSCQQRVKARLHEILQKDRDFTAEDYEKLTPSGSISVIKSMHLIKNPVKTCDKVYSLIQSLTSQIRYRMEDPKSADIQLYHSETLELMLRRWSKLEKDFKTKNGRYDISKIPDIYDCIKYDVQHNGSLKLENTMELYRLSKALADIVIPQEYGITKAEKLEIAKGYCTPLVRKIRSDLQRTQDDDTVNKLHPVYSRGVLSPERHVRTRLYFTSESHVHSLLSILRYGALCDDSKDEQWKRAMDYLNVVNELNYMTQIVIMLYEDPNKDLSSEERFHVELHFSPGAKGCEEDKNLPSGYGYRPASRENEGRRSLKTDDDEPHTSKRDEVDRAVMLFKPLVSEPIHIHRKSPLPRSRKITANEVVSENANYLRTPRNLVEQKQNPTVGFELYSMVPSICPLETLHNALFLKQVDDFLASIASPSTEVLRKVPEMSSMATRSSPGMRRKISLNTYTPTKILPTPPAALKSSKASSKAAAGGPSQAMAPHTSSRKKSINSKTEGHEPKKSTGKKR
Chain of UniProt P77212 (whole entry, looked up): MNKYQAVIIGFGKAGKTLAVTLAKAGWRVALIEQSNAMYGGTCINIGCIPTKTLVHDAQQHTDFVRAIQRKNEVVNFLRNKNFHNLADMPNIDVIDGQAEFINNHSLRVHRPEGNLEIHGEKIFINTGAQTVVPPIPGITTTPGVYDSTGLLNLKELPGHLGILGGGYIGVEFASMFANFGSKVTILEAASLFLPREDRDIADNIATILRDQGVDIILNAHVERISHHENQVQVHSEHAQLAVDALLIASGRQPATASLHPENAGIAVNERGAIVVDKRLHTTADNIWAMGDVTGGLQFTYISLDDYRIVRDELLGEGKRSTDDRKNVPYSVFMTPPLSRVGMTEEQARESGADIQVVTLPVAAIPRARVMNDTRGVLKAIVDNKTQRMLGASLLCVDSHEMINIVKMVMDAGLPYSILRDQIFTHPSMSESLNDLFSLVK
Chain of UniProt P95748 (whole entry, looked up): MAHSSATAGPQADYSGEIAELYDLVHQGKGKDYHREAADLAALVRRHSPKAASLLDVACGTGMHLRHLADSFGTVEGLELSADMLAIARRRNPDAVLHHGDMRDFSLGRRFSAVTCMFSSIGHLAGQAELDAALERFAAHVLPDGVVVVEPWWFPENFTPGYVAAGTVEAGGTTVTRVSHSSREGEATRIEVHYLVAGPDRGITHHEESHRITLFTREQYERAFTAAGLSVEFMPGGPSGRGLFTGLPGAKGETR
Chain of UniProt P07914 (whole entry, looked up): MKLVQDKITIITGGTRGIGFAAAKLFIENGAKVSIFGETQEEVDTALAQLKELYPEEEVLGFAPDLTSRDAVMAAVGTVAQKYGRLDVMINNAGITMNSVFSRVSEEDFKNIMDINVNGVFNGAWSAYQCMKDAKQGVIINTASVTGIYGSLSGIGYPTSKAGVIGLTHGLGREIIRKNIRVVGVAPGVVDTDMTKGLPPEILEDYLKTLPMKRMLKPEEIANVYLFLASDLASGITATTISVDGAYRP

| Molecule | substrate | pH | temperature | setting | added | Km [µM] |
| --- | --- | --- | --- | --- | --- | --- |
| enzyme (Triticum aestivum, UniProt A0A6J4BJM5) | O=C1[C@@H](O[C@@H]2O[C@H](CO)[C@@H](O)[C@H](O)[C@H]2O)Oc2ccccc2N1O | pH 7.2 | 30 °C | – | – | 217 |
| RALBP1 (Homo sapiens, UniProt Q15311) | Nc1ncnc2c1ncn2[C@@H]1O[C@H](COP(=O)(O)OP(=O)(O)OP(=O)(O)O)[C@@H](O)[C@H]1O | pH 7.4 | 37 °C | – | 14C-DOX 3.6 µM | 3500 |
| B1 (trypsin) | N=C(N)NCCC[C@H](NC(=O)c1ccccc1)C(=O)Nc1ccc([N+](=O)[O-])cc1 | pH 8 | 25 °C | – | – | 550 |
| rclA (Escherichia coli, UniProt P77212) | N#CSO | pH 7.4 | – | apparent | – | 2 |
| B2 (protein) | CC(C)=CCC/C(C)=C/COP(=O)(O)OP(=O)(O)O | pH 7.5 | – | – | GPP 1-100 µM | 2.8 |
| TylM1 (Streptomyces fradiae, UniProt P95748) | Cc1cn([C@H]2C[C@H](O)[C@@H](COP(=O)(O)OP(=O)(O)O[C@H]3O[C@H](C)[C@@H](O)[C@H](N)[C@H]3O)O2)c(=O)[nH]c1=O | – | 25 °C | – | SAM | 45 |
| protein (Candidatus Protochlamydia amoebophila, UniProt Q6MEN4) | Nc1ncnc2c1ncn2[C@@H]1O[C@H](COP(=O)(O)OP(=O)(O)OP(=O)(O)O)[C@@H](O)[C@H]1O | pH 7 | 30 °C | transporter, labelled substrate, apparent, not purified | – | 437 |
| Ppip5k2 (Mus musculus, UniProt Q6ZQB6) | O=P(O)(O)O[C@@H]1[C@@H](OP(=O)(O)O)[C@H](OP(=O)(O)OP(=O)(O)O)[C@@H](OP(=O)(O)O)[C@H](OP(=O)(O)OP(=O)(O)O)[C@@H]1OP(=O)(O)O | pH 5 | 37 °C | – | – | 6.8 |
| BaiA1 (Clostridium scindens, UniProt P07914) | NC(=O)c1ccc[n+]([C@@H]2O[C@H](COP(=O)(O)OP(=O)(O)OC[C@H]3O[C@@H](n4cnc5c(N)ncnc54)[C@H](OP(=O)(O)O)[C@@H]3O)[C@@H](O)[C@H]2O)c1 | pH 8.7 | 37 °C | cofactor varied | glycocholic acid 1.4 mM | 883 |
| B3 (protein) | Nc1ncnc2nc[nH]c12 | pH 7.5 | 37 °C | MgCl2 5 mM | PRPP 1 mM | 71 |
| B4 (enzyme) | NC(=O)C1=CN([C@@H]2O[C@H](COP(=O)(O)OP(=O)(O)OC[C@H]3O[C@@H](n4cnc5c(N)ncnc54)[C@H](O)[C@@H]3O)[C@@H](O)[C@H]2O)C=CC1 | pH 7.9 | – | apparent, cofactor varied | – | 14.3 |
| protein (Cecembia lonarensis, UniProt K1KZY4) | C[C@@H]1O[C@@H](Oc2ccc([N+](=O)[O-])cc2)[C@@H](O)[C@H](O)[C@H]1O | pH 5.5 | 35 °C | – | – | 268 |
